{"data": "Experimental data collected from several papers", "note": "A part holds a random share of what one study measured."}
{"data": "Series 1", "target": "Sal-like protein 4, full length isoform B (SALL4, Homo sapiens, UniProt Q9UJQ4-2, residues 1-616)", "technique": "universal PBM", "form": "double-stranded DNA, one strand shown", "sample": "in vitro", "concentration": "not given", "notes": "8-mer, flanks averaged, mean of replicates", "reading": "higher = stronger binding", "Construct (chain)": "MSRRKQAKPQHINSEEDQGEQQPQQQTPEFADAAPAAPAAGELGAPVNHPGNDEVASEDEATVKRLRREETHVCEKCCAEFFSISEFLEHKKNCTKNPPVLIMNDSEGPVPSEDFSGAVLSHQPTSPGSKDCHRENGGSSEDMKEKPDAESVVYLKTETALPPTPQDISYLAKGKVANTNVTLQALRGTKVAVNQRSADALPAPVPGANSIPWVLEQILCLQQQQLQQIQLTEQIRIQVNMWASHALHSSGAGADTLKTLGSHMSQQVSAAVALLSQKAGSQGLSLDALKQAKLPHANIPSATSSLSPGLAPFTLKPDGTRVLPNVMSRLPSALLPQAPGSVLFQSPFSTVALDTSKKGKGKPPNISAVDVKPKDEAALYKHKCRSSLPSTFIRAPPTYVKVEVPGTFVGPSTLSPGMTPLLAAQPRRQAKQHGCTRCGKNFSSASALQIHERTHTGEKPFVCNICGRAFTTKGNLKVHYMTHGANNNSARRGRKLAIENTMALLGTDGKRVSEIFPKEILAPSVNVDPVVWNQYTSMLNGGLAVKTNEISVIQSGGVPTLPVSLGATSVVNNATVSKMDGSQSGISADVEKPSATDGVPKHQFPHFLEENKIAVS"}
{"Sequence": "AACTGCCC", "E-score": -0.116}
{"Sequence": "TAAATGAA", "E-score": 0.24}
{"Sequence": "CCGGATCG", "E-score": -0.356}
{"Sequence": "CGCTGACC", "E-score": -0.133}
{"data": "Series 2", "target": "Histone acetyltransferase KAT6A, both winged helices, GST fusion (KAT6A, Homo sapiens, UniProt Q92794, residues 1-181)", "technique": "protein binding microarray", "form": "double-stranded DNA, one strand shown", "sample": "in vitro", "concentration": "not given", "notes": "8-mer, flanks averaged, mean of 2 arrays, mostly near background", "baseline": "not given", "reading": "higher = stronger binding", "Residues (chain)": "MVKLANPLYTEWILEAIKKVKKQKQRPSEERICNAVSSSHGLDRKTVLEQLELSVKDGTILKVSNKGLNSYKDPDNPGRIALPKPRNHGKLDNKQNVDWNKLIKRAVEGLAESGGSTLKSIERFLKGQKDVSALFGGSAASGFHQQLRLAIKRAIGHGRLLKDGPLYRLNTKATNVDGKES"}
{"Sequence": "GCTGAAAC", "E-score": 0.0721}
{"Sequence": "GCAATTCA", "E-score": 0.0793}
{"Sequence": "AGTCATCC", "E-score": -0.0775}
{"Sequence": "ACTTTGTA", "E-score": -0.129}
{"data": "Other studies, line by line", "IRF5 S451D/S453D/S456D/S462D full length, phosphomimetic": "Interferon regulatory factor 5, full length, phosphomimetic (IRF5, Homo sapiens, UniProt Q13568-2, residues 1-514, S451D/S453D/S456D/S462D)"}
{"Substance": "GCCTAGCACGACGGACTGGGGTTTCAGGACGTGCTAGTCTTGATTCGCTTGACGCTGCTG", "target": "IRF5 S451D/S453D/S456D/S462D full length, phosphomimetic", "assay": "protein-binding microarray", "system": "double-stranded DNA, one strand shown, in vitro", "conditions": "940 nM top, 60-bp whole probe, together with: salmon DNA 0.4 mg/ml", "scale": "baseline: random background probes, higher = stronger binding", "quantity": "fitted relative affinity", "result": "0.356 z-score"}
{"Substance": "PhoQ, residues 284 288 289 292 302 303 SLANIV", "target": "PhoP, residues 12 14 15 18 19 NIMAP (Escherichia coli, UniProt P23836)", "assay": "Sort-seq, refers to: YFP reporter", "system": "E. coli", "conditions": "PhoQ-PhoP variant library, together with: 10 µM Mg2+", "scale": "baseline: high Mg2+ state, higher = stronger signaling", "quantity": "fold induction", "result": 0.668}
{"Substance": "GCCTAGCACTTAGGACTTCTTCTCCTTTAGTGCTAGGTCTTGATTCGCTTGACGCTGCTG", "target": "IRF5 S451D/S453D/S456D/S462D full length, phosphomimetic", "assay": "protein-binding microarray", "system": "double-stranded DNA, one strand shown, in vitro", "conditions": "940 nM top, 60-bp whole probe, together with: salmon DNA 0.4 mg/ml", "scale": "baseline: random background probes, higher = stronger binding", "quantity": "fitted relative affinity", "result": "0.42 z-score"}
{"note": "Repeated from above (series 1):"}
{"Sequence": "CGCTGACC", "E-score": -0.133}
